Measurements pooled from the literature.
A part holds a random share of what one study measured. Changes are numbered by the printed parent chain.

Block 1 — method: Sort-seq; item: YFP reporter; matrix: E. coli; setting: PhoQ-PhoP variant library; added: 10 µM Mg2+; baseline: high Mg2+ state; direction: higher = stronger signaling; measurement: fold induction
Substance: PhoQ, residues 284 288 289 292 302 303 SSTMSV
PhoP, residues 12 14 15 18 19 TPWTL (Escherichia coli, UniProt P23836): 1.03
PhoP, residues 12 14 15 18 19 NFFVT (Escherichia coli, UniProt P23836): 5.8
PhoP, residues 12 14 15 18 19 LHHYF (Escherichia coli, UniProt P23836): 15.6
PhoP, residues 12 14 15 18 19 VGHWL (Escherichia coli, UniProt P23836): 5.99

Block 2 — target: ATF1, bZIP domain (human); method: DHFR protein complementation; matrix: yeast; baseline: wild-type JUN-FOS pair; direction: higher = stronger binding; measurement: binding fitness
Setting: single substitutions, most at no-binding floor
Parent: JUN, bZIP domain (human); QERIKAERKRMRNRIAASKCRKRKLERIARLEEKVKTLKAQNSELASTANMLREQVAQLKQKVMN; partner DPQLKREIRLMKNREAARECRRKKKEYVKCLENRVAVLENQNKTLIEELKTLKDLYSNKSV
T48F: -1.52 natural log
L52N: -1.7 natural log
V56Y: -1.44 natural log
K39S: -1.46 natural log
A29L: -1.45 natural log
E54S: -1.51 natural log
I28V: -1.36 natural log
T37L: -1.52 natural log
A46W: -1.48 natural log
A49D: -1.63 natural log
T48A: -1.48 natural log
K34T: -1.53 natural log
Q41T: -1.49 natural log

Block 3 — method: protein-binding microarray; molecule type: double-stranded DNA, one strand shown; matrix: in vitro; concentration: 250 nM; setting: 60-bp whole probe; added: salmon DNA 0.4 mg/ml; baseline: random background probes; direction: higher = stronger binding; measurement: log fluorescence; constant ends, left off below: GCCTAGCAC … GTCTTGATTCGCTTGACGCTGCTG
Target: Interferon regulatory factor 7, full length, phosphomimetic (IRF7, Homo sapiens, UniProt Q92985, residues 1-503, S101K/S471D/S472D/S475D/S476D/S477D/S483D/S484D/S487D)
Sequence of UniProt Q92985 (whole entry, unmodified, looked up): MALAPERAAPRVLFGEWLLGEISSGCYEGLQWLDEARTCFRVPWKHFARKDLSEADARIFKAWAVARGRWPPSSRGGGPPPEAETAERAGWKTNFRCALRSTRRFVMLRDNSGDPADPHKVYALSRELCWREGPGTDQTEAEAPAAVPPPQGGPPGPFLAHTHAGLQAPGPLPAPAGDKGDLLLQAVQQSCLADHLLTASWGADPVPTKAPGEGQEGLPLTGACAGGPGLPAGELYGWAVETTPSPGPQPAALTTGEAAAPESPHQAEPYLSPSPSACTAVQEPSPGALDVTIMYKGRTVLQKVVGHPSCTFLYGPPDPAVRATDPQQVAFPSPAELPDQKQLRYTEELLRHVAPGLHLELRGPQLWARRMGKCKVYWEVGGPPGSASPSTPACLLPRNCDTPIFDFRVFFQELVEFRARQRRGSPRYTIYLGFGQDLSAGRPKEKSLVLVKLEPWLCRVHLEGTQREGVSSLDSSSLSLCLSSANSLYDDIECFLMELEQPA
TTAGGACTGGTTATCCTTTAGTGCTAG: 0.241 z-score
GACGATCTCAGCCTGGAGACGTGCTAG: -0.415 z-score
TTAGGGCTGGGTATCGGTTAGTGCTAG: 0.209 z-score
GACGGCCTCCTTTTCCTGACGTGCTAG: 0.128 z-score
GACGGACTGGGTTTCTGGACGTGCTAG: -0.0259 z-score
TTAGGACTGCTTATCTTTTAGTGCTAG: -0.193 z-score
GACGGTCTCGGTCTCGAGACGTGCTAG: 1.32 z-score
GACCATCTCAGTTTCGAGACGTGCTAG: 4.12 z-score
GTCATACGAGCGGTAGCCAAGTGCTAG: -0.146 z-score
ATCTTTTTCCCTATTATATAGTGCTAG: 2.55 z-score
GACGAGATCGGGACTGGAGACGTGCTA: -0.319 z-score
GAAGGTTTCCTTATCCTGACGTGCTAG: 2.85 z-score
TTAGAACTGAGTCTCGTTTAGTGCTAG: 2.07 z-score
TTAGATATCGGGACTCGATTAGTGCTA: 0.773 z-score
TTAGGTATCGACACTGGGCTAGTGCTA: -0.215 z-score
TTAGAACTGGGGTTTCGATTCGTGCTA: 10.4 z-score
AAAATGATTGGTTGAACATGGTGCTAG: -0.331 z-score
TTAGAACTGGAGTTTCGATTAGTGCTA: 7.37 z-score
TTAGGATTGGGTCTCGGTTAGTGCTAG: 1.04 z-score

Block 4 — method: DHFR PCA, deep sequencing; matrix: yeast; added: (+)-ABA 4.8 µM; baseline: wild-type fitted maximum; direction: higher = stronger binding; measurement: relative binding score
Target: ABI1, truncated, D143A, DHFR fusion (Arabidopsis thaliana)
Setting: methotrexate growth selection, single substitutions
Parent: PYL1, truncated, DHFR fusion (Arabidopsis thaliana); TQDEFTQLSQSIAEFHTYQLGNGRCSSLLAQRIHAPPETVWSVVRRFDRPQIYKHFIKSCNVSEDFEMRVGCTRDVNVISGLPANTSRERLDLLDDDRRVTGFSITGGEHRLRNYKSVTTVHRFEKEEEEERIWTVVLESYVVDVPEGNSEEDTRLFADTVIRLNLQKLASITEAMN; partner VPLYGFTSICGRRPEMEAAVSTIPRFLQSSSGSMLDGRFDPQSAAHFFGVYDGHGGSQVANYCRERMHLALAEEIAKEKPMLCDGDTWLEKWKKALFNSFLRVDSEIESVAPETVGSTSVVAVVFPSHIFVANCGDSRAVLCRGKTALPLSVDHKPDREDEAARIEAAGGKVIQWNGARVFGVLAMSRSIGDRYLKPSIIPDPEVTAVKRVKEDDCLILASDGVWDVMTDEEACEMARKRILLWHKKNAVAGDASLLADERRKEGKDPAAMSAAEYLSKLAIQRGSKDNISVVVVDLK
R123W: 23%
G107L: 1.47%
F15Y: 71.2%
V70I: 70%
E131A: 79.5%
M68L: 88.1%
Q31L: 1.66%
K58P: 5.23%
L82T: -0.0749%
E109Q: 66.6%
C60R: 19.5%
R24F: 15.6%
D92H: -7.79%
L169I: 12.4%
Y115T: -7.36%
W134C: 85.4%
H110M: 9.78%
I105G: -5.94%
S63I: 56.8%
S80L: 18.1%
S87Q: 22.9%
D75A: 60.6%
R46Q: 72.4%
I12R: 11.7%
E67G: 50.5%

Block 5 — target: CCNF, cyclin fold, Cln2 fusion (human); method: yeast growth competition, sequencing; matrix: yeast; setting: weak parent motif; baseline: not given; direction: higher = stronger binding; measurement: normalised enrichment score
Parent: PKN2 docking peptide (human); VSAVQKLDFSDTM; partner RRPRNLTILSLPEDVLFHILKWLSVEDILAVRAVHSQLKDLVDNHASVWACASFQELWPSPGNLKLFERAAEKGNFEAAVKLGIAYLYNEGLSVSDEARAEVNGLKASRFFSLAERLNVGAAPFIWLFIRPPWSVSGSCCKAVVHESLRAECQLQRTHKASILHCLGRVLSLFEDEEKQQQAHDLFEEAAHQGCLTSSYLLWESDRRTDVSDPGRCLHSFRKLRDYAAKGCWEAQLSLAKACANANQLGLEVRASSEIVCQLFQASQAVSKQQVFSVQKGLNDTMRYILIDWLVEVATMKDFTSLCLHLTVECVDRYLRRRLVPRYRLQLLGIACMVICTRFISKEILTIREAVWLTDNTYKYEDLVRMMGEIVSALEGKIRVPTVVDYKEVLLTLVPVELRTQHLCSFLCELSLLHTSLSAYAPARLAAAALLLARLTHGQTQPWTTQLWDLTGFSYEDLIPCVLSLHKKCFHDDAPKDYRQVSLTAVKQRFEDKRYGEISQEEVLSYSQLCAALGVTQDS
F9M: -0.338
T12E: 1.12
V1I: 0.929
T12P: 2.18
D8Q: 1.49
D8T: 0.481
M13F: 1.4
K6H: 0.302
Q5R: 7.19
K6R: 1.14
S2K: 0.514
D11A: 0.701
D11T: 0.795
S2E: -0.738
S2M: 0.17
V4F: -0.614
K6Q: 0.193
A3N: 0.161
L7T: -0.845
L7Y: -0.357
F9P: -0.487

A few entries again (block 3):
ATCTTTTTCCCTATTATATAGTGCTAG: 2.55 z-score
TTAGAACTGAGTCTCGTTTAGTGCTAG: 2.07 z-score
TTAGGATTGGGTCTCGGTTAGTGCTAG: 1.04 z-score
GACGGTCTCGGTCTCGAGACGTGCTAG: 1.32 z-score
GACGGACTGGGTTTCTGGACGTGCTAG: -0.0259 z-score
TTAGGTATCGACACTGGGCTAGTGCTA: -0.215 z-score
TTAGGACTGGTTATCCTTTAGTGCTAG: 0.241 z-score
GACGAGATCGGGACTGGAGACGTGCTA: -0.319 z-score
GAAGGTTTCCTTATCCTGACGTGCTAG: 2.85 z-score
TTAGAACTGGGGTTTCGATTCGTGCTA: 10.4 z-score
GACGATCTCAGCCTGGAGACGTGCTAG: -0.415 z-score
